Assay results gathered from unrelated publications.
Compare with care: the assays were run in different laboratories. Values joined by “and” are separate records of one study, mostly repeats; a detail may differ.
PRKAA2: 5'-AMP-activated protein kinase catalytic subunit alpha-2 (PRKAA2, Homo sapiens, UniProt P54646)

C=CC(=O)Nc1cccc(-c2cnc3[nH]cc(C(=O)NC(C)(C)C)c3n2)c1  inhibition (PRKAA2; kinase activity; 0.1 µM): 51% and 53%
COc1ccc(C(=O)/C=C/c2ccccc2-c2c[nH]c3ccc(C#N)cc23)c(O)c1  inhibition (PRKAA2; enzyme activity, inhibitor; 20 µM): 0%
C=CC(=O)N1CCCC(n2c(=O)c3ncccc3n(Cc3ccc(Oc4ccccc4)cc3)c2=O)C1 (centres unmarked)  remaining binding (PRKAA2; cell-free assay, competition with immobilised ligand; 1 µM): 91%
CC(C)=CC1OC(C)(C)C2C=C3C(=O)C(Cl)=CC(O)C3C3C(O)C4OC4C(=O)C132 (centres unmarked)  remaining binding (PRKAA2; cell-free assay, competition with immobilised ligand; 10 µM): 93%
CCn1cc(C(=O)O)c(=O)c2c(N)c(F)c(NC3CCCCC3)cc21  inhibition (5'-AMP-activated protein kinase catalytic subunit alpha-2, with beta1 gamma3 (PRKAA2, Homo sapiens, UniProt P54646); kinase activity; 0.1 µM, added: ATP at Km): 20.4%
Cc1ccc(-c2c(/C=C(\C#N)C(=O)NC(C)C)n(CCCO)c3ncnc(N)c23)cc1  remaining binding (PRKAA2; cell-free assay, competition with immobilised ligand; 1 µM): 100%
C=CC(=O)N1CCc2ccc(-n3c(=O)ccc4cnc5ccc(-c6cnn(C)c6)cc5c43)cc21  remaining binding (PRKAA2; KINOMEscan; 1 µM; reference: DMSO control): 87%
C=CC(=O)N1Cc2nc(-c3cc(-c4cc(Cl)cnc4Cl)c(F)cc3F)n(-c3ccncn3)c2C1  inhibition (5'-AMP-activated protein kinase catalytic subunit alpha-2, with beta2 gamma1 (PRKAA2, Homo sapiens, UniProt P54646); kinome panel; 1 µM): -0.9%
Nc1ncc2c(n1)-c1c([nH]c3ccc(C4=CCOCC4)cc13)CCC2  remaining binding (PRKAA2; binding, competition with immobilised ligand; 1 µM): 100%
CN1CCN(Cc2ccc(-c3ccc(CO[C@H]4CCC[C@@H]4NC(=O)c4cc(-c5cnn(C)c5)cnc4N)cc3)cc2)CC1  inhibition (5'-AMP-activated protein kinase catalytic subunit alpha-2, with beta1 gamma2 (PRKAA2, Homo sapiens, UniProt P54646); SelectScreen kinase profiling; 0.1 µM): 0%
CN1CC[C@@H](COc2cnc(C#N)cc2-c2ccn3nc(NC(=O)C4CC4)cc3c2)C1  inhibition (PRKAA2; enzyme activity, inhibitor; 1 µM): 17%
Cc1cccc(O[C@H]2CCC[C@@H](C(C)CNCc3ccncc3)C2)c1 (relative stereo)  inhibition (PRKAA2; cell-free assay; 1 µM): 4%
CCN1CCN(Cc2ccc(C(=O)Nc3ccc(C)c(NCc4cnc5[nH]ccc5c4OC)c3)cc2C(F)(F)F)CC1  remaining binding (PRKAA2; binding, competition with immobilised ligand; 1 µM): 97%
COc1cc(Nc2nc(C)cc(-c3cnn4nc(OC)ccc34)n2)cc(C(F)(F)F)c1  remaining binding (PRKAA2; KINOMEscan; 1 µM, AMPK-alpha2; reference: DMSO): 100%

Some of these lines once more:
Nc1ncc2c(n1)-c1c([nH]c3ccc(C4=CCOCC4)cc13)CCC2  remaining binding (PRKAA2; binding, competition with immobilised ligand; 1 µM): 100%
CN1CCN(Cc2ccc(-c3ccc(CO[C@H]4CCC[C@@H]4NC(=O)c4cc(-c5cnn(C)c5)cnc4N)cc3)cc2)CC1  inhibition (5'-AMP-activated protein kinase catalytic subunit alpha-2, with beta1 gamma2 (PRKAA2, Homo sapiens, UniProt P54646); SelectScreen kinase profiling; 0.1 µM): 0%
